Experimental data pooled from the literature.
Protocols differ between the studies behind these lines. ± gives the spread as reported.
FKBP4 FK1 domain: Peptidyl-prolyl cis-trans isomerase FKBP4, FK1 domain (FKBP4, Homo sapiens, UniProt Q02790)
Chain of UniProt Q02790 (whole entry, looked up): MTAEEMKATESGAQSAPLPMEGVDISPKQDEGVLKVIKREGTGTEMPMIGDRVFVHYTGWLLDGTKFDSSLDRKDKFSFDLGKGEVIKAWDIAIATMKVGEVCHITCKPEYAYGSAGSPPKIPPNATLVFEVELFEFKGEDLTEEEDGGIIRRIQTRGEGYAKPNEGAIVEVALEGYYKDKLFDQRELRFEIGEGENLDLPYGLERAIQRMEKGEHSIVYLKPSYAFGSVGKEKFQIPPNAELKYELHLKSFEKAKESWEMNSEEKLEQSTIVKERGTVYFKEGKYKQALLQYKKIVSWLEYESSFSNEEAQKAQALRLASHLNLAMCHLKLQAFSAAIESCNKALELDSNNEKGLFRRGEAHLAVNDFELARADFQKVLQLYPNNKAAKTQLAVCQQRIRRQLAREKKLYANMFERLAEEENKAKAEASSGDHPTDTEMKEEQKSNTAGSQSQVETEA
Tumor necrosis factor receptor superfamily member 1A extracellular domain: Tumor necrosis factor receptor superfamily member 1A, extracellular domain (Homo sapiens, UniProt P19438)
Chain of UniProt P19438 (whole entry, looked up): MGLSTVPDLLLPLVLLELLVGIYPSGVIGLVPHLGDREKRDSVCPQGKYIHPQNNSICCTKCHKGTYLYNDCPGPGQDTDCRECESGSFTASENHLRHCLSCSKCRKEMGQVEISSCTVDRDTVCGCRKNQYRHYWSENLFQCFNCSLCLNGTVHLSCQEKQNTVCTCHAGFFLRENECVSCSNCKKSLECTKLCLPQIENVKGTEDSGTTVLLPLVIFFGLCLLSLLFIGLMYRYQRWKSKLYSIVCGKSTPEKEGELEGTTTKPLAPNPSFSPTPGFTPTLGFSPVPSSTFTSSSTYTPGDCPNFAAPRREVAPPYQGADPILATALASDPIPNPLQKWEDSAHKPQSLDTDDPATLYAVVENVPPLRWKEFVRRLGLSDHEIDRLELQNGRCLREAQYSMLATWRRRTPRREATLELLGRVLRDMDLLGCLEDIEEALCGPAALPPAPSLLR
ALDH1B1: Aldehyde dehydrogenase X, mitochondrial (ALDH1B1, Homo sapiens, UniProt P30837)
Chain of UniProt P30837 (whole entry, looked up): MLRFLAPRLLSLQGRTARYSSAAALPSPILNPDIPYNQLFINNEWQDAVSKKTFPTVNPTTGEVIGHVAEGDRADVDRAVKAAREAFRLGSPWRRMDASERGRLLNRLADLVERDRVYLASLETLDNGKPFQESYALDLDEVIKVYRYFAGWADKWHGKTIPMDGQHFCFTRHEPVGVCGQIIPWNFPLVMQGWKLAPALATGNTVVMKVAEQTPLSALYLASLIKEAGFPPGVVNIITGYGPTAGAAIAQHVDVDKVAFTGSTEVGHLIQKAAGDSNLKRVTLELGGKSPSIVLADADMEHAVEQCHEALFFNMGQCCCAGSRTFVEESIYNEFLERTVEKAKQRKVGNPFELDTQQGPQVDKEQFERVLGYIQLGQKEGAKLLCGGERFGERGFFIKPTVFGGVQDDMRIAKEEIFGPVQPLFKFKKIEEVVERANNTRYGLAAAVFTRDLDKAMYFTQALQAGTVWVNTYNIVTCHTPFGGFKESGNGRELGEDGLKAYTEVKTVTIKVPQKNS
Chain of UniProt P51813 (whole entry, looked up): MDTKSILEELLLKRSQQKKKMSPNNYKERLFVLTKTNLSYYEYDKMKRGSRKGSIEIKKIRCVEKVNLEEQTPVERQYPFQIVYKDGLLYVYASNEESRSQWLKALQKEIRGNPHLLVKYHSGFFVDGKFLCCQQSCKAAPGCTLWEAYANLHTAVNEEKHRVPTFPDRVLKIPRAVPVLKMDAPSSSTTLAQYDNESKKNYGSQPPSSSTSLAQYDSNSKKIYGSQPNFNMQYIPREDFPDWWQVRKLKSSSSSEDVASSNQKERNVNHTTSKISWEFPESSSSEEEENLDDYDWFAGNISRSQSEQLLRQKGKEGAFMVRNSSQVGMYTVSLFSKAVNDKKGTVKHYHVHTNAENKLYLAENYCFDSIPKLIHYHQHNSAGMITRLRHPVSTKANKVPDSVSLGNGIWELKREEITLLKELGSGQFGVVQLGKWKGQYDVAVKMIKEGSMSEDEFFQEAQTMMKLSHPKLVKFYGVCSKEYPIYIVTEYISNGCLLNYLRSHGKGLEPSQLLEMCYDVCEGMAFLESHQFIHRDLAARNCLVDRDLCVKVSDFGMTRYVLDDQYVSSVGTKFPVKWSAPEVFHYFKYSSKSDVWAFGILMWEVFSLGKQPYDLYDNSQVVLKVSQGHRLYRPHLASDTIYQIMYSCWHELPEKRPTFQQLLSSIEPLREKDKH
Chain of UniProt Q9EQY0 (whole entry, unmodified, looked up): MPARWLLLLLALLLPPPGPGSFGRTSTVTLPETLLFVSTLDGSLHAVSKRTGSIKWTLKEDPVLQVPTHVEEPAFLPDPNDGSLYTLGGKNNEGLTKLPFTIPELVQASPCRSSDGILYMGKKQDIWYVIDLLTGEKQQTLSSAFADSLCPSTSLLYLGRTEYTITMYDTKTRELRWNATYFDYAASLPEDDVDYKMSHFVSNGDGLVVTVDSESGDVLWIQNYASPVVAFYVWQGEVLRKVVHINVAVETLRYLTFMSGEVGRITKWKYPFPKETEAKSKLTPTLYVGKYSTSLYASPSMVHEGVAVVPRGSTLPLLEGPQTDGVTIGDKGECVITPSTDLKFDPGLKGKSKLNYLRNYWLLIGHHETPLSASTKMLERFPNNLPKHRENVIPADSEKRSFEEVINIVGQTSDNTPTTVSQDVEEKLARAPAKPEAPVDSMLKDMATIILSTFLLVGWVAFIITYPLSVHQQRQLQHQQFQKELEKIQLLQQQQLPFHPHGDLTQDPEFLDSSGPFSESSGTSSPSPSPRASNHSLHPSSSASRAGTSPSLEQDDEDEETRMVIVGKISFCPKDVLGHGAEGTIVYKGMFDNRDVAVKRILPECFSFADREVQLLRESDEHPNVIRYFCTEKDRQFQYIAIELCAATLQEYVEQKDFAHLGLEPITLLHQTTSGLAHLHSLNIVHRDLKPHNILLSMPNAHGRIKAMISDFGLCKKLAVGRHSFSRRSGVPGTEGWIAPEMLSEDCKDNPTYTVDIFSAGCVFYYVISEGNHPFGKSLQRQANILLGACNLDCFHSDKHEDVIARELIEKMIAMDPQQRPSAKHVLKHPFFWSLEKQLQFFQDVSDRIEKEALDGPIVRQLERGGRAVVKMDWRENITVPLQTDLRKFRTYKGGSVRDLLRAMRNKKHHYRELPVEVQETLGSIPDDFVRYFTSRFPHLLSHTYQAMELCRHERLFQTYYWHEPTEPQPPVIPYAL
Chain of UniProt Q01337 (whole entry, looked up): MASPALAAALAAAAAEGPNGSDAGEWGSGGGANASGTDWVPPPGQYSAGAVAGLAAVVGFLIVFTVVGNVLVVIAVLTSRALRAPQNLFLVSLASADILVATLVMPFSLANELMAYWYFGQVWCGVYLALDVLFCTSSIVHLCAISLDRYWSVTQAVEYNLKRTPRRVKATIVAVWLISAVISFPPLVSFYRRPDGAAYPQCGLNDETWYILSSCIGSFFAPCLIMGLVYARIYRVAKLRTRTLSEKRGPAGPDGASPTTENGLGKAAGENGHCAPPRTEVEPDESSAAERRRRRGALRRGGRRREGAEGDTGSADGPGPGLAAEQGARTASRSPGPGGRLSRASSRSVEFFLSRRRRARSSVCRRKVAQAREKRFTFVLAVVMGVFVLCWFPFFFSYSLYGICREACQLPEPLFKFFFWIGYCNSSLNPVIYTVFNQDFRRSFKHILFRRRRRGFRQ
Chain of UniProt Q96AB3 (whole entry, looked up): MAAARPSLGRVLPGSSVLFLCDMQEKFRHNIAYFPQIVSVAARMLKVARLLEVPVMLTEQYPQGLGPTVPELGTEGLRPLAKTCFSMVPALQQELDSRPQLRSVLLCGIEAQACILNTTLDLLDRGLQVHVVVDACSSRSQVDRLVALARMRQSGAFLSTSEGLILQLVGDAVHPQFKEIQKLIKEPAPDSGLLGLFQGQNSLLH
Chain of UniProt Q16512 (whole entry, looked up): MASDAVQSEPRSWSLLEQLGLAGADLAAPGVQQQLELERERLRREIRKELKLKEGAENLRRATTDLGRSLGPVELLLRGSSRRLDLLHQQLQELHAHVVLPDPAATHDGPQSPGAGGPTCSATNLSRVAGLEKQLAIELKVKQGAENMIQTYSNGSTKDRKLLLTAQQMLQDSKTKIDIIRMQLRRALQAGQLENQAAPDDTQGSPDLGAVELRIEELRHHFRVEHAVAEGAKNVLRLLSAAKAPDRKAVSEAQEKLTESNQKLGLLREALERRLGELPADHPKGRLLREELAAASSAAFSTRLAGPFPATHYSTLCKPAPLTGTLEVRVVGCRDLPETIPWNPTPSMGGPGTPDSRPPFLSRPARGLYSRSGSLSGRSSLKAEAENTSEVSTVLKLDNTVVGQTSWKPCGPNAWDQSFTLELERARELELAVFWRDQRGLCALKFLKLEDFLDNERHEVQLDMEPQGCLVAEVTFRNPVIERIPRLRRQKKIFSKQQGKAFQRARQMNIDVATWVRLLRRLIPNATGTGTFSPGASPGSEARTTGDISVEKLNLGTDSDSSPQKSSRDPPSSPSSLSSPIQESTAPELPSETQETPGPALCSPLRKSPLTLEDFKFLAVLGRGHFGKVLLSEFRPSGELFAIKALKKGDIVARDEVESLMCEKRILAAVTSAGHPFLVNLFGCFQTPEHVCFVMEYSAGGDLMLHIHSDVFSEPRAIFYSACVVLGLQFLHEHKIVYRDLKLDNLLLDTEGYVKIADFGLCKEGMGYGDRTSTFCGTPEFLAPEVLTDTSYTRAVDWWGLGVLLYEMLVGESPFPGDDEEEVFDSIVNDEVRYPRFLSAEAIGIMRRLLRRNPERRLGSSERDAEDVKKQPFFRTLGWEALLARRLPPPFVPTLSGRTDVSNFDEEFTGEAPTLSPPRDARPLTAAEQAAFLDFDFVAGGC
Chain of UniProt P0DPI2 (whole entry, looked up): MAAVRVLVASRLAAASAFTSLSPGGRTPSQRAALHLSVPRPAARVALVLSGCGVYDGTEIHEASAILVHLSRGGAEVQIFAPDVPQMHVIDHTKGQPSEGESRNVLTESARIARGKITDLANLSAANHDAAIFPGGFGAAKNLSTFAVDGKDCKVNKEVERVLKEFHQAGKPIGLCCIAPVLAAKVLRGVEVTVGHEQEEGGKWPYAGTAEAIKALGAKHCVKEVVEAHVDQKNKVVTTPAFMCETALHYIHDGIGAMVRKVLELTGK

For C=CC(=O)N1CC2(CCN(c3nc(OC4CCN(CCCOC)CC4)nc4c(OCC(F)(F)F)c(-c5c(C)ccc6[nH]ncc56)c(C5CC5)cc34)CC2)C1, the Kd was 1.39 ± 0.15 µM (GTPase KRas, GDP-bound (KRAS, Homo sapiens, UniProt P01116, A146T); SPR).
The Kd of CCc1nc2cc3ccccc3cc2cc1C(=O)N1CCC[C@H]1C(=O)N[C@@H](CCC/C=C/CCC[C@H](NC(=O)[C@@H]1CCCN1C(=O)c1cc2cc3ccccc3cc2nc1CC)C(=O)N[C@@H](CCCCN)C(=O)NCCCN)C(=O)N[C@@H](CCCCN)C(=O)NCCCN is reported as 0.768 µM ((CUG)2 RNA; SPR).
Cc1cccc2c1N(C(=O)n1ccnn1)CC2 has a Kd of 42.1 µM (D14 (Arabidopsis thaliana, UniProt Q9SQR3); ITC; mean of 3 runs).
The Kd of NS(=O)(=O)c1ccc(N2C(=O)c3ccc(N4CCOCC4)cc3C2=O)cc1 is reported as 0.24 µM (CA2 (Homo sapiens, UniProt P00918); binding).
With C=CC1CN(Cc2ccccn2)C(=O)C2CCCC1N2[S+]([O-])c1cc(Cl)cc(Cl)c1 (centres unmarked) the Kd was 3.98 µM (FKBP4 FK1 domain; competitive fluorescence polarization; protein 10 nM, with: 1 nM tracer).
COc1ccc(Cn2ccc3ccc(C(=O)NO)cc32)cc1 gave a Kd of greater than 30.2 µM (GATD3 (Homo sapiens, UniProt P0DPI2); inhibitor, competition pulldown; SW620 and MV4-11 lysate; 1 h).
Nc1cccc(-c2ccc(C(=O)O)nc2)c1 has a Kd of 219 ± 125 µM (Tumor necrosis factor receptor superfamily member 1A extracellular domain; binding, SPR OneStep).
For CCc1nc2cc3ccccc3cc2cc1C(=O)N1CCC[C@H]1C(=O)N[C@@H](C/C=C\C[C@H](NC(=O)[C@@H]1CCCN1C(=O)c1cc2cc3ccccc3cc2nc1CC)C(=O)N[C@@H](CCCCN)C(=O)NCCCN)C(=O)N[C@@H](CCCCN)C(=O)NCCCN, the Kd was 0.043 µM ((CUG)2 RNA; SPR).
The Kd of Cc1c[nH]c2nccc(-c3ccc(C(=O)N[C@@H]4c5c(F)cc(C(F)F)cc5C[C@@H]4O)cn3)c12 is reported as 1.6 µM (PKN1 (Homo sapiens, UniProt Q16512); binding, competition with immobilised ligand).
CSc1nc2cc(Cl)c(Oc3cccc(Cl)c3Cl)cc2[nH]1 gave a Kd of 11.8 µM (ALDH1B1; binding, SPR).
COc1ccc2cc3[n+](cc2c1OCCCOC(=O)c1cscn1)CCc1cc2c(cc1-3)OCO2 has a Kd of 1.8 µM (PCSK9 (Homo sapiens, UniProt Q8NBP7); binding, SPR; pH 7.4).
For NS(=O)(=O)c1cc2c(cc1Cl)NC(CC1CCCC1)NS2(=O)=O (centres unmarked), the Kd was 0.71 µM (ALDH1B1; binding, SPR).
C=CC1CN(Cc2ccccn2)C(=O)C2CCCC1N2S(=O)(=NC1C=CCCC1)c1cc(Cl)cc(Cl)c1 (mixture of isomers) gave a Kd of greater than 40 µM (FKBP4 FK1 domain; competitive fluorescence polarization; protein 10 nM, with: 1 nM tracer).
COc1ccc(C(=O)NO)cc1NC(=O)c1ccc(-c2ccccc2)cc1 has a Kd of greater than 30.2 µM (Isochorismatase domain-containing protein 2 (ISOC2, Homo sapiens, UniProt Q96AB3); inhibitor, competition pulldown; SW620 and MV4-11 lysate; 1 h).
With C[n+]1c(/C=C/c2ccc(N(c3ccccc3)c3ccccc3)cc2)cc(/C=C2\Sc3ccccc3N2CCCN2CCCC2)c2ccccc21 the Kd was 28.6 µM (hTERT promoter G-quadruplex DNA (human); isothermal titration calorimetry; pH 7.4, 25 °C, 2% DMSO, 60 mM KCl).
For O=C(O)c1ccnc(-c2ccc(F)cc2)c1, the Kd was 1450 ± 40 µM (Tumor necrosis factor receptor superfamily member 1A extracellular domain; binding, SPR OneStep).
With O=C([O-])CN1CCN(CC(=O)[O-])CCN(CC(=O)NC[C@H]2CC[C@H](C(=O)N[C@@H](Cc3ccc4ccccc4c3)C(=O)NCCCC[C@H](NC(=O)N[C@@H](CCC(=O)O)C(=O)O)C(=O)O)CC2)CCN(CC(=O)[O-])CC1.[Ga+3] the Kd was 0.013 µM (FOLH1 (Homo sapiens, UniProt Q04609); binding, radioligand).
The Kd of F[B-]1(F)OC(c2ccc(N3CCCC3)cc2)=Nc2sc3cc(C(F)(F)F)ccc3[n+]21 is reported as 0.318 ± 0.024 µM (Insulin, amyloid fibrils (INS, Bos taurus, UniProt P01317); binding, fluorescence saturation).
For O=S(=O)(NC1=NCCCCC1)c1ccc2sc(NS(=O)(=O)c3ccc4ccccc4c3)nc2c1, the Kd was 0.186 µM (Kelch-like ECH-associated protein 1 (Mus musculus, UniProt Q9Z2X8); binding).
CC(=O)N[C@@H](CCCNC(=N)N)C(=O)N[C@H](C(=O)N[C@@H](CCCCN)C(=O)N[C@@H](CO)C(=O)N[C@@H](CCCNC(=N)N)C(=O)N[C@H](C(=O)N[C@@H](Cc1c[nH]c2ccccc12)C(=O)N[C@@H](C)C(=O)NCC(N)=O)[C@@H](C)OP(=O)(O)O)[C@@H](C)O gave a Kd of 0.0452 µM (14-3-3 protein epsilon (Homo sapiens, UniProt P62258); binding, SPR; pH 7.4).
COc1cc(-c2ccc3c(c2)OCCN3C)cc(C=O)c1O gave a Kd of 18.4 µM (Serine/threonine-protein kinase/endoribonuclease IRE1 (Mus musculus, UniProt Q9EQY0, N772Y); microscale thermophoresis).
O=C(O)c1ccc(-c2ccc(F)cc2)cn1 has a Kd of 1030 ± 140 µM (Tumor necrosis factor receptor superfamily member 1A extracellular domain; binding, SPR OneStep injection; fragment hits, kinetic fit).
With C=C[C@H]1CN(Cc2ccccn2)C(=O)[C@@H]2CCC[C@H]1N2Sc1cc(Cl)cc(Cl)c1 the Kd was greater than 40 µM (FKBP4 FK1 domain; competitive fluorescence polarization; protein 10 nM, with: 1 nM tracer).
The Kd of C=CC(=O)N1CCCN(C(=O)c2cc(Sc3cnc(NC(=O)C4CC4)s3)c(C)cc2OC)C[C@H]1C is reported as 9.1 µM (BMX (Homo sapiens, UniProt P51813); binding, competition with immobilised ligand).
Cn1ncc2cc(-c3cncc(Cl)c3N3CCC4(CCNC4=O)CC3)ccc21 gave a Kd of greater than 22 µM (ERN1 (Homo sapiens, UniProt O75460); cell-free assay; lysate).
With CC[C@H](C)[C@H](NC(=O)[C@H](Cc1ccccc1)NC(=O)[C@H](Cc1c[nH]c2ccccc12)NC(=O)[C@H](CO)NC(C)=O)C(=O)N[C@@H](CCC(N)=O)C(=O)N[C@@H](CO)C(=O)N[C@@H](CC(C)C)C(=O)N[C@@H](CS)C(=O)N[C@@H](C)C(=O)N[C@@H](CCSC)C(=O)N[C@@H](CC(C)C)C(=O)N[C@@H](CCCCN)C(=O)N[C@@H](CCC(N)=O)C(=O)N[C@@H](Cc1ccc(O)cc1)C(=O)N[C@@H](C)C(=O)N[C@@H](CC(=O)O)C(=O)N[C@@H](CCCCN)C(=O)N[C@@H](CC(C)C)C(=O)N[C@@H](CCC(=O)O)C(=O)N[C@@H](Cc1ccccc1)C(=O)N[C@@H](CCSC)C(=O)N[C@@H](Cc1c[nH]cn1)C(=O)N[C@H](C(=O)N[C@@H](CC(C)C)C(=O)N[C@H](C(N)=O)[C@@H](C)O)[C@@H](C)CC the Kd was greater than 20 µM (BAK1 (Homo sapiens, UniProt Q16611); binding, FP; pH 8).
With COC1(C2=NCCN2)COc2ccccc2O1 (centres unmarked) the Kd was 0.00168 ± 0.00035 µM (Alpha-2C adrenergic receptor (Mus musculus, UniProt Q01337); [3H]compound saturation binding; HEK293 membranes, HA-tagged receptor).
The Kd of C=CC1CN(Cc2ccccn2)C(=O)C2CCCC1N2S(=O)(=Nc1ccccc1)c1cc(Cl)cc(Cl)c1 (centres unmarked) is reported as greater than 40 µM (FKBP4 FK1 domain; competitive fluorescence polarization; protein 10 nM, with: 1 nM tracer).
O=C(O)c1ccnc(-c2ccc3[nH]ccc3c2)c1 gave a Kd of 627 ± 8 µM (Tumor necrosis factor receptor superfamily member 1A extracellular domain; binding, SPR OneStep).
